# Results pooled from the literature.
# Lines come from different studies, so protocols differ. pIC50: −log10 of the molar value.
# Sequence of UniProt Q02763 (whole entry, looked up): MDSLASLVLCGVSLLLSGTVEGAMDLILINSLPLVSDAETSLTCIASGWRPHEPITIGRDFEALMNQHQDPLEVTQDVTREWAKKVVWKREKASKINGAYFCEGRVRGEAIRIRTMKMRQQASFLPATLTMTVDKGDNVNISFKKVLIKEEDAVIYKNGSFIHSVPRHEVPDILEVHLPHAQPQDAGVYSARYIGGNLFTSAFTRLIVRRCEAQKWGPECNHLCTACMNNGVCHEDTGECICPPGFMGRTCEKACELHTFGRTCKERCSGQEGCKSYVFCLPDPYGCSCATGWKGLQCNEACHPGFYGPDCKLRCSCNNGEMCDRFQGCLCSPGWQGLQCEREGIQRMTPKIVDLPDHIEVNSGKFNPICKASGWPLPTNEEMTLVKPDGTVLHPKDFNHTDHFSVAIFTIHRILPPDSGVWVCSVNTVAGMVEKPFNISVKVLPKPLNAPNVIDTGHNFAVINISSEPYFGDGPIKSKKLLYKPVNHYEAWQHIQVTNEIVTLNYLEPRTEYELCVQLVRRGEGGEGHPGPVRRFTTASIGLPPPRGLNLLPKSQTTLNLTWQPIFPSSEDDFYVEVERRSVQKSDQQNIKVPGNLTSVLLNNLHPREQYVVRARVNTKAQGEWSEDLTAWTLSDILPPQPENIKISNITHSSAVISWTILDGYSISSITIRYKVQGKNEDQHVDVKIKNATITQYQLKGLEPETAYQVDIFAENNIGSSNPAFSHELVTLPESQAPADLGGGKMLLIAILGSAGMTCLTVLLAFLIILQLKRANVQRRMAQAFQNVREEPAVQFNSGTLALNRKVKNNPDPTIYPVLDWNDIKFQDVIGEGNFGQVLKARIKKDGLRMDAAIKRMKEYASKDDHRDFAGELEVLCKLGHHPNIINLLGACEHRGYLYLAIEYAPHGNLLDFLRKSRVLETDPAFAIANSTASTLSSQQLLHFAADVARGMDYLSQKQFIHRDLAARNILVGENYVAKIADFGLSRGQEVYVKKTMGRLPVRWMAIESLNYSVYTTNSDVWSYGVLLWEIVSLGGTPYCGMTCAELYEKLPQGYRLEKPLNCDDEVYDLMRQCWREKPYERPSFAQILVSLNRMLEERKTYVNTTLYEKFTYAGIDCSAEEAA
Structure (SMILES),target or system,assay,conditions,measurement,value
Cc1c(Cl)c(=O)oc2cc(OCCCC[Se]C#N)ccc12,SW1573,"cell growth or viability, SRB",,GI50,23 µM
N.N.[Cl][Pt][Cl],DOHH-2,"cell growth or viability, ATP luminescence",72 h,pIC50,6.24
COc1ccc(Nc2nn3c(-c4ccccc4)ccnc3c2C(=O)Nc2ccc(Cl)cc2)cc1,A549,"cell growth or viability, MTT","12.5 µg/mL, 48 h, serum-free",viability,81.2%
N#C[Se]CCCCOc1ccc2c(-c3ccccc3)cc(=O)oc2c1,SW1573,"cell growth or viability, SRB",,GI50,27 µM
CCOC(=O)C1=C(N)N(c2ccc(C(=O)OCC)cc2)C(O)=C(C#N)C12C(=O)Nc1ccccc12 (centres unmarked),HepG2,"cell growth or viability, MTT","6.25 µM, 24 h",viability,58.6%
COc1ccc(C(=O)Nc2ccc3c(c2)C=CCP(=O)(O)O3)cc1,MDA-MB-231,"cell growth or viability, MTT",72 h,Emax,~10%
COc1cc(C(=O)c2nc(-c3cccc4c3ccn4C)c[nH]2)cc(OC)c1OC,M14,"cell growth or viability, MTS",72 h,pIC50,8.17
COc1ccc(Nc2nn3c(-c4ccccc4)ccnc3c2C(=O)Nc2ccccc2)cc1,A549,"cell growth or viability, MTT","12.5 µg/mL, 48 h, serum-free",viability,88.6%
[2H]c1c([2H])c([C@]2([2H])CCCN2C(=O)C(C)(C)Oc2ccc3cn[nH]c3c2)c([2H])c([2H])c1C([2H])([2H])[2H],"TEK (Homo sapiens, UniProt Q02763)","binding, competition with immobilised ligand",1 µM,remaining binding,77%
N#C[Se]Cc1cc(=O)oc2cc(O)ccc12,SW1573,"cell growth or viability, SRB",,GI50,30 µM
CN(C)c1ccc(C(=O)NCCCCCCC(=O)NO)cc1,OCI-Ly1,"cell growth or viability, ATP luminescence","0.1 µM, 5 days",viability,136%

# Some of these lines once more:
Structure (SMILES),target or system,assay,conditions,measurement,value
COc1cc(C(=O)c2nc(-c3cccc4c3ccn4C)c[nH]2)cc(OC)c1OC,M14,"cell growth or viability, MTS",72 h,pIC50,8.17
